Assay results pooled from the literature.
Each numbered part is a random draw from the data of one study; scales do not carry over between parts.

Series 1
Target: Centromere-binding protein 1, full length, N-terminal tag (CBF1, Saccharomyces cerevisiae, UniProt P17106, residues 1-351)
Chain of UniProt P17106 (whole entry, looked up): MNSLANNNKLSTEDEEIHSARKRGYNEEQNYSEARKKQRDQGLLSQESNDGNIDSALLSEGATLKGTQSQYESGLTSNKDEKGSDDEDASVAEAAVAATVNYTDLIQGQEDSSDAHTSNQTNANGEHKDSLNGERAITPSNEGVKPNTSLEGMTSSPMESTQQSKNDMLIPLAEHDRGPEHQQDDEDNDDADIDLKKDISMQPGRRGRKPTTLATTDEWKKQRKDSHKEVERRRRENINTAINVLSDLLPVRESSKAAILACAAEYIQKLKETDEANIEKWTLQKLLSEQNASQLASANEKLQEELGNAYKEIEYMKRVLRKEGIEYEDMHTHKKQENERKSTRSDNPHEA
Technique: protein-binding microarray
Form: double-stranded DNA, one strand shown
Medium: in vitro
Concentration: 0.8 µM
Notes: whole 60-bp probe, no competitor
Reading: higher = stronger binding
Constant ends, left off below: … GTCTTGATTCGCTTGACGCTGCTG
With `GAAGTCACCTCCAGGTGATTTGCTGTCTTTATGTAG` the fluorescence intensity was 520 a.u.
For `GAACGTTTGGGGCATGGCGTGTCGCCTAGAAGGTAG`, the fluorescence intensity was 519 a.u.
The fluorescence intensity of `CTACATCCTTTAAAACACGTTATTCTCTATTTTTTC` is reported as 597 a.u.
`CTAGTTACTACTCACCTGCTCTCACCGACTCATTTC` gave a fluorescence intensity of 617 a.u.
With `CTAACTACACAGTGTTCCGTGAGACCGTTACAGTTC` the fluorescence intensity was 541 a.u.
`CCTAACTACTATATTTTAGTCACATAGCTTCGTACA` has a fluorescence intensity of 600 a.u.
The fluorescence intensity of `GAAGTTATTGCAATCAACGTGAGCCTTAACCAATAG` is reported as 583 a.u.
With `GAAGAAAGCCGCGGGATCACCACCGTTATTCGTTAG` the fluorescence intensity was 519 a.u.
The fluorescence intensity of `CTACTGAAGATTCGAAACGTGTTTCCAAAACCATTC` is reported as 604 a.u.
`CCTAACTACTATATACATGTGAGATAGCTTCGTACA` has a fluorescence intensity of 643 a.u.
With `CTATTCAAAGCCGCACACGTTTCTTTTTCCGAATTC` the fluorescence intensity was 580 a.u.
`CCTAACTACTATAGTCGCATGCCATAGCTTCGTACA` gave a fluorescence intensity of 512 a.u.
For `CTAGCGTTTTTCTGGGACGTGCTGACAAACGAGTTC`, the fluorescence intensity was 583 a.u.
The fluorescence intensity of `CTAACGCCAATAGTAAACGTCACCCCGAGGTTTTTC` is reported as 474 a.u.
For `GAACTTCTAGTCGAGCACATGGTCAAAATAGTCTAG`, the fluorescence intensity was 1490 a.u.
For `GAAGATTATGGGCCGCTCGTGACAGTAAAGGAATAG`, the fluorescence intensity was 1310 a.u.
`CCTAACTACTATAATAAGCTGATATAGCTTCGTACA` gave a fluorescence intensity of 520 a.u.
`GAATCCTTTTTGCTGCGCGTGGAAAAGCGTGTCTAG` has a fluorescence intensity of 536 a.u.
The fluorescence intensity of `CTATTCAAGCAAGTACACGTGCGCAAGTTGTACTTC` is reported as 5470 a.u.

Series 2
Target: Histone acetyltransferase KAT6A, winged helix 2, GST fusion (KAT6A, Homo sapiens, UniProt Q92794, residues 85-181)
Technique: protein binding microarray
Form: double-stranded DNA, one strand shown
Medium: in vitro
Concentration: not given
Notes: 8-mer, flanks averaged, mean of 2 arrays, mostly near background
Baseline: not given
Reading: higher = stronger binding
Residues (chain): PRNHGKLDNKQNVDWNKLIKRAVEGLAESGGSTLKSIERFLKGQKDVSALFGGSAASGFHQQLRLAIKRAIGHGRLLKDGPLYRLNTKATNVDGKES
With `AATGAAAA` the E-score was 0.0545.
For `AGCACATA`, the E-score was 0.0218.
The E-score of `ATCCGTAG` is reported as 0.0358.
`CGACTAGC` gave an E-score of 0.0918.
For `ACCGTTAA`, the E-score was -0.179.
With `TGGTGCAA` the E-score was -0.0297.
`CTCTTTTA` gave an E-score of -0.073.
For `GGCGAAAC`, the E-score was 0.206.
`CAAAAGAA` gave an E-score of 0.207.
With `GCCTCCTA` the E-score was -0.111.
`GATAAGCA` gave an E-score of 0.0769.
`AAACTCCA` gave an E-score of 0.0912.
With `CGTCGATA` the E-score was -0.103.
The E-score of `CTCAAATA` is reported as -0.0871.
With `ACGTCTGG` the E-score was 0.0494.
`CTGCTCCA` gave an E-score of 0.191.
With `CAACAGAC` the E-score was -0.0568.
For `CTCCTCAC`, the E-score was -0.0857.
`CAGCTACG` has an E-score of 0.0197.
`AACTTTCA` gave an E-score of 0.147.
With `CTTTTTCC` the E-score was 0.109.
`GCGCTTCC` gave an E-score of -0.0809.

Series 3
Target: Interferon regulatory factor 5, full length, phosphomimetic (IRF5, Homo sapiens, UniProt Q13568-2, residues 1-514, K96S/S451D/S453D/S456D/S462D)
Technique: protein-binding microarray
Form: double-stranded DNA, one strand shown
Medium: in vitro
Concentration: 250 nM
Notes: 60-bp whole probe
With: salmon DNA 0.4 mg/ml
Baseline: random background probes
Reading: higher = stronger binding
Constant ends, left off below: GCCTAGCAC … GTCTTGATTCGCTTGACGCTGCTG
For `GACGATCTCCGACTGGAGACGTGCTAG`, the log fluorescence was -0.522 z-score.
For `GACGGTCTGCTTTTCCTGACGTGCTAG`, the log fluorescence was 0.178 z-score.
For `CACGGACTGGGACTGGGGACGTGCTAG`, the log fluorescence was -0.558 z-score.
For `CACCATCTAGTTCTGCTTTGGTGCTAG`, the log fluorescence was 0.229 z-score.
`GACGATTTCGGGTATGGAGACGTGCTA` gave a log fluorescence of 3.93 z-score.
`GACGGTATCCTGCTCCTGACGTGCTAG` gave a log fluorescence of -0.14 z-score.
`CCTATTATATATATCATAAGGTGCTAG` gave a log fluorescence of 0.607 z-score.
The log fluorescence of `TCATCACTTTCTTTAACACTGTGCTAG` is reported as 2.79 z-score.
`GACGATCTCAGACTCGAGACGTGCTAG` has a log fluorescence of -0.285 z-score.
The log fluorescence of `GACGGACTGCGTATCGGGACGTGCTAG` is reported as 0.0339 z-score.
For `TCATCATTTTTTTTCATACTGTGCTAG`, the log fluorescence was 1.52 z-score.
`TCACTTCTTTTTTATTCTACTGTGCTA` has a log fluorescence of 1.28 z-score.
For `GACGGACTGGACACTGGGGAAGTGCTA`, the log fluorescence was -0.579 z-score.
For `TTAGGTTTCGGTTTCGGATAGTGCTAG`, the log fluorescence was 11.4 z-score.
`TAGTATTTTTTTCCAGAGGGGTGCTAG` has a log fluorescence of 0.56 z-score.
`TTAGGTTTCGACTTTCGTTTAGTGCTA` has a log fluorescence of 9.13 z-score.
For `GACGATATCGGGACGGGAGACGTGCTA`, the log fluorescence was 0.814 z-score.
For `TTAGGTTTCCTTCTCTTTTAGTGCTAG`, the log fluorescence was 1.25 z-score.
The log fluorescence of `TGCATTTTTTTTTTCTACTTGTGCTAG` is reported as 1.28 z-score.

Series 4
Target: Prothrombin, mature alpha-thrombin (F2, Homo sapiens, UniProt P00734)
Technique: aptamer microarray, sandwich
Form: DNA with 2'F-ANA
Medium: in vitro
Concentration: 200 nM
Notes: whole 15-mer aptamer, many near background
With: Cy3 exosite-II aptamer, 400 nM
Reading: higher = stronger binding
Strand: GGTTGGTGTGGTTGG
`2'F-ANA at 1 3 5 6 7 11 12 13 14 15` — result for “mean fluorescence intensity”: 49.1 a.u.
`2'F-ANA at 3 4 5 8 9 12 14 15`: “mean fluorescence intensity” 56.6 a.u.
`2'F-ANA at 1 2 3 5 9 11 12 14`: “mean fluorescence intensity” 110 a.u.
`2'F-ANA at 2 4 5 8 10 11 12 13` — result for “mean fluorescence intensity”: 44.5 a.u.
For `2'F-ANA at 3 4 5 8 11 14 15`, “mean fluorescence intensity” read 63 a.u.
`2'F-ANA at 2 3 4 5 6 9 10 13` — result for “mean fluorescence intensity”: 47.3 a.u.
`2'F-ANA at 1 2 3 10 11 12 13` — result for “mean fluorescence intensity”: 84.9 a.u.
`2'F-ANA at 4 5 7 8 10 12 14 15`: “mean fluorescence intensity” 46 a.u.
For `2'F-ANA at 1 2 7 8 10 13`, “mean fluorescence intensity” read 53 a.u.
Under “mean fluorescence intensity”, `2'F-ANA at 5 8 10 12 13 15` is recorded as 179 a.u.
For `2'F-ANA at 1 2 3 4 6 8 9 12 15`, “mean fluorescence intensity” read 357 a.u.
For `2'F-ANA at 2 4 5 6 10 13`, “mean fluorescence intensity” read 124 a.u.
`2'F-ANA at 1 3 4 5 7 8 9 14 15`: “mean fluorescence intensity” 48.5 a.u.
`2'F-ANA at 3 4 6 7 8 9 15`: “mean fluorescence intensity” 608 a.u.
Under “mean fluorescence intensity”, `2'F-ANA at 2 5 7 8 12 13 15` is recorded as 122 a.u.
`2'F-ANA at 1 4 7 8 11 12`: “mean fluorescence intensity” 266 a.u.
`2'F-ANA at 2 3 6 9 11 12 15`: “mean fluorescence intensity” 852 a.u.
`2'F-ANA at 2 3 4 5 6 7 11`: “mean fluorescence intensity” 72.8 a.u.
Under “mean fluorescence intensity”, `2'F-ANA at 1 3 4 6 7 10 14 15` is recorded as 48.1 a.u.
`2'F-ANA at 7 8 9 11 13`: “mean fluorescence intensity” 477 a.u.

Excerpt of the above (series 1):
`CCTAACTACTATATACATGTGAGATAGCTTCGTACA` has a fluorescence intensity of 643 a.u.
With `CTATTCAAAGCCGCACACGTTTCTTTTTCCGAATTC` the fluorescence intensity was 580 a.u.
`CCTAACTACTATAGTCGCATGCCATAGCTTCGTACA` gave a fluorescence intensity of 512 a.u.
For `CTAGCGTTTTTCTGGGACGTGCTGACAAACGAGTTC`, the fluorescence intensity was 583 a.u.
The fluorescence intensity of `CTAACGCCAATAGTAAACGTCACCCCGAGGTTTTTC` is reported as 474 a.u.
For `GAACTTCTAGTCGAGCACATGGTCAAAATAGTCTAG`, the fluorescence intensity was 1490 a.u.
For `GAAGATTATGGGCCGCTCGTGACAGTAAAGGAATAG`, the fluorescence intensity was 1310 a.u.
